Measurements pooled from the literature.
Each line is one published result; not all experiments were run side by side. “And” joins repeats or separate records; there may be more than shown. ± marks the error that the study gave.
CNR1: Cannabinoid receptor 1 (CNR1, Homo sapiens, UniProt P21554)
UniProt P21554, sequence (whole entry, looked up): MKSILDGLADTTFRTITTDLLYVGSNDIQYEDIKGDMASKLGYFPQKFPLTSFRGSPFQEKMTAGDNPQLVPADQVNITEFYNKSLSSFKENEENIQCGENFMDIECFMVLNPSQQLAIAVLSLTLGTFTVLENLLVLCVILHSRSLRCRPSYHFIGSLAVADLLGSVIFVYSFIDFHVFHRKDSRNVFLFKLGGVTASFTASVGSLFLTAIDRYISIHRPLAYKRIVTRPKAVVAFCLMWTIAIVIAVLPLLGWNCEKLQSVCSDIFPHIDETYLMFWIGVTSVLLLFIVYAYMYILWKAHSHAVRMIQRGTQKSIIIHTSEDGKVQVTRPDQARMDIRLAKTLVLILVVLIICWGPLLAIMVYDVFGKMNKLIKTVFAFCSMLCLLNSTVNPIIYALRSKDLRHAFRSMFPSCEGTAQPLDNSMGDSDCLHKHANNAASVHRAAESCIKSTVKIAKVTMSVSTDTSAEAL
bglA: bglA (Thermotoga maritima, UniProt Q08638)
UniProt Q08638, sequence (whole entry, looked up): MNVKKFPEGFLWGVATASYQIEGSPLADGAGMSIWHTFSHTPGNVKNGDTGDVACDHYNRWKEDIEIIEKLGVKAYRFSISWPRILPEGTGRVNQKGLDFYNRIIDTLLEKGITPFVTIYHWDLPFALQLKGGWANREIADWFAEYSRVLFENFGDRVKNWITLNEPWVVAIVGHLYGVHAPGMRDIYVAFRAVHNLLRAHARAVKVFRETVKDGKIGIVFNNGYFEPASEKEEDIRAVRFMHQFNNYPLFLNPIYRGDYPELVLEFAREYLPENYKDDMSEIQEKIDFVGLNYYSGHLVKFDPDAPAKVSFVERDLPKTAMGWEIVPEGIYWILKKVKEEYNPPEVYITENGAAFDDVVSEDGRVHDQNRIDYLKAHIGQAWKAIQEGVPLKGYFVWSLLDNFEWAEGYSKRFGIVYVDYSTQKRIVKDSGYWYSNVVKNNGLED
Na(+)/H(+) exchange regulatory cofactor NHE-RF2 PDZ domain 1: Na(+)/H(+) exchange regulatory cofactor NHE-RF2, PDZ domain 1 (Homo sapiens, UniProt Q15599)
Astl: Astacin-like metalloendopeptidase (Astl, Mus musculus, UniProt Q6HA09)
UniProt Q6HA09, sequence (whole entry, looked up): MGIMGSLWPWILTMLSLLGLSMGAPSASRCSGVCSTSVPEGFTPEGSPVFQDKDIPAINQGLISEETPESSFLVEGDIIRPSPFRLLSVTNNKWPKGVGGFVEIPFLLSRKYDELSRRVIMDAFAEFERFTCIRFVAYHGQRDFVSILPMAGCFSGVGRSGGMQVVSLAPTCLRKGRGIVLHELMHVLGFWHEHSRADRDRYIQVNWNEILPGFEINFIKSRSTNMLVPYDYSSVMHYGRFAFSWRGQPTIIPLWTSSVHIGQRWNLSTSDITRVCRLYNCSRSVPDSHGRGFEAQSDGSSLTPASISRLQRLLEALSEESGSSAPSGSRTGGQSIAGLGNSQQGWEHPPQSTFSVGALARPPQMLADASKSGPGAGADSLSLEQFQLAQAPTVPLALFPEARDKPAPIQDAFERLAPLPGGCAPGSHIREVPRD
EPHA2: Ephrin type-A receptor 2 (EPHA2, Homo sapiens, UniProt P29317)
UniProt P29317, sequence (whole entry, looked up): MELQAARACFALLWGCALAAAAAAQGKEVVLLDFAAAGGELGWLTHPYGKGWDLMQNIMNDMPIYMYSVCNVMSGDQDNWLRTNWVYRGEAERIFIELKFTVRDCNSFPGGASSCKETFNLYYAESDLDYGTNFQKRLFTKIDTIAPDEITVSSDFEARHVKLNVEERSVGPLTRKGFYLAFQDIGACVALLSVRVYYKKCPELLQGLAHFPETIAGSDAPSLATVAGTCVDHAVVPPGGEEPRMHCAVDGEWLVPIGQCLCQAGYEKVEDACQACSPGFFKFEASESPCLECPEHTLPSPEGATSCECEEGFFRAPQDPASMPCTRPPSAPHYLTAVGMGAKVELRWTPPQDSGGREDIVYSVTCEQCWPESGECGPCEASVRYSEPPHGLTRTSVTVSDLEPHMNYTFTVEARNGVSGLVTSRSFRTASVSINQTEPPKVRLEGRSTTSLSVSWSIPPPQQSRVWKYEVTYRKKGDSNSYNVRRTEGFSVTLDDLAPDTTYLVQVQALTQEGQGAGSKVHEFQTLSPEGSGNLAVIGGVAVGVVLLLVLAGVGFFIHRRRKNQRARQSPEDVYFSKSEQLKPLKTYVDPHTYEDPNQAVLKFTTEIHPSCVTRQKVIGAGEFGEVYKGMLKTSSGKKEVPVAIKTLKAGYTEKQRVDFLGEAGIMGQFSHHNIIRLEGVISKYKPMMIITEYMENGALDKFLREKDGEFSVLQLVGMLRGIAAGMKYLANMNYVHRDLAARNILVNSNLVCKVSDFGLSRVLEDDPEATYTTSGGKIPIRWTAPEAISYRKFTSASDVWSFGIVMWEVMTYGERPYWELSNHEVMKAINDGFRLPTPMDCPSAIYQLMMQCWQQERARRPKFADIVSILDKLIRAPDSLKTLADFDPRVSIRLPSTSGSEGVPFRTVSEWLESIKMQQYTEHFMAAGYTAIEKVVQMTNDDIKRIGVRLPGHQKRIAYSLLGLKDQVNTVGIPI
XIAP BIR3: E3 ubiquitin-protein ligase XIAP, BIR3 (XIAP, Homo sapiens, UniProt P98170)
UniProt P98170, sequence (whole entry, looked up): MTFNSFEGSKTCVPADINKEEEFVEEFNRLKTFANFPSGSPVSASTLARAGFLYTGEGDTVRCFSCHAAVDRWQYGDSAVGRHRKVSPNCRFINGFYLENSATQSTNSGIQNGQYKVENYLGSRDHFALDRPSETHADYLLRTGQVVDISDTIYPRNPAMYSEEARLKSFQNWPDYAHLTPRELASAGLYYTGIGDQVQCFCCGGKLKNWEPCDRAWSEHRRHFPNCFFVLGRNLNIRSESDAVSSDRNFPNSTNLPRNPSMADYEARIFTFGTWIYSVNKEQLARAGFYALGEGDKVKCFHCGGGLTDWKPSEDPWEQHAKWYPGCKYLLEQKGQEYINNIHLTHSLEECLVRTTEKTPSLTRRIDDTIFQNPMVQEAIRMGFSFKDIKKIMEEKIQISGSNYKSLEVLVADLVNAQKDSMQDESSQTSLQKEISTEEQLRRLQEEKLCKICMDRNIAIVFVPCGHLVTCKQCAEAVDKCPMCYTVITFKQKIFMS
GLAA: Glucoamylase (GLAA, Aspergillus niger, UniProt P69328)
UniProt P69328, sequence (whole entry, looked up): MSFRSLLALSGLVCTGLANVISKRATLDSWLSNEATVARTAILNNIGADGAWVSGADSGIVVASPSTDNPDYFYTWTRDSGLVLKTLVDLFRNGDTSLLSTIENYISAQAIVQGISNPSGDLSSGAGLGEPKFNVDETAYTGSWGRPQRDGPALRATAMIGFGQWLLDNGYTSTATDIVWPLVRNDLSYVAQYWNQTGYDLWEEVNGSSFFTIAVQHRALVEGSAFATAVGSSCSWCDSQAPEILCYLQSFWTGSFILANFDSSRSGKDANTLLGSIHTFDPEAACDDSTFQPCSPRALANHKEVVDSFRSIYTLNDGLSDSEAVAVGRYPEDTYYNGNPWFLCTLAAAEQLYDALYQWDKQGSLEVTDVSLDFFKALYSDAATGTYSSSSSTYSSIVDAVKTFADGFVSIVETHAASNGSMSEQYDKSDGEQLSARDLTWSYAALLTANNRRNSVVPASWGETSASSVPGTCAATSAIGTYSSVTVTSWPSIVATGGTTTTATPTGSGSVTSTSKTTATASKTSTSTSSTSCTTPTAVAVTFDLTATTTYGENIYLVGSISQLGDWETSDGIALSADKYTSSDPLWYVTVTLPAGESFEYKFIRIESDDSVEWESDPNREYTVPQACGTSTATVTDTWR
Calpain-2 catalytic subunit: Calpain-2 catalytic subunit (Homo sapiens, UniProt P17655)
UniProt P17655, sequence (whole entry, looked up): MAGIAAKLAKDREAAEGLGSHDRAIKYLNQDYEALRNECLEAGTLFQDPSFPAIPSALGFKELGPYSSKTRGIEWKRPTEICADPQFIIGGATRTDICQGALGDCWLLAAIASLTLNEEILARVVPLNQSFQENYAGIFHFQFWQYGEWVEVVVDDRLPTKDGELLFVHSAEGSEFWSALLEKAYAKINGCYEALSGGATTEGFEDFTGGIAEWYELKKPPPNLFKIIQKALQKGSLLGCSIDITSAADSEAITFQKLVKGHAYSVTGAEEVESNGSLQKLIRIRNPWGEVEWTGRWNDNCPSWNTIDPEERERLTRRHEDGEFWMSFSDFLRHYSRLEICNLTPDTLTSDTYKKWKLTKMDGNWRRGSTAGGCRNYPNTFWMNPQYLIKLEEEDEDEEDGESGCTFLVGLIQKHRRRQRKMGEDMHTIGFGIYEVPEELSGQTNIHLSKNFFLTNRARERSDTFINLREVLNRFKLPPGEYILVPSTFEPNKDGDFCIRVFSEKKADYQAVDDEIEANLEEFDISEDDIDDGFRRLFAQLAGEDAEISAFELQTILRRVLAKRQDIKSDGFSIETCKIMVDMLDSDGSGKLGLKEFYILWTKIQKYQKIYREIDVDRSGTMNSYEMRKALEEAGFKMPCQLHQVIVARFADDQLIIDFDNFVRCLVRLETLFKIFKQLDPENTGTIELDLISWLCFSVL
UniProt Q06GJ0, sequence (whole entry, looked up): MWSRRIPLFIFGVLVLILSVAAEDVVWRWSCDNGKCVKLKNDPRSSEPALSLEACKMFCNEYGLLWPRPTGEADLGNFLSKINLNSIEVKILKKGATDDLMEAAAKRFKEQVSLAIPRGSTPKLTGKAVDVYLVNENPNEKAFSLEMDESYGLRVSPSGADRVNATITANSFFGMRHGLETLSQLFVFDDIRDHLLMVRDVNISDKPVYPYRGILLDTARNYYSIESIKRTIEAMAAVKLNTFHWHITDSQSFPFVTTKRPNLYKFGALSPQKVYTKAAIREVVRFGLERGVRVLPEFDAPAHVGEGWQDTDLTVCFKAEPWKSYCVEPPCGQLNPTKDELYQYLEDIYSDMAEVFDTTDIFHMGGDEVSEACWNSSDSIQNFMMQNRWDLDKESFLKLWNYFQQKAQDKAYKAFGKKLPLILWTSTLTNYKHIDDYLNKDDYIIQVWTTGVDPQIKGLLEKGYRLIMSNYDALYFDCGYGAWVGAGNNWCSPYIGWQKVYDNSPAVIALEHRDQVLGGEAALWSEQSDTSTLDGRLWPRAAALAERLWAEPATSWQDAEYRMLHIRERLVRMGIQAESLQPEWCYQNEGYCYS
UniProt P40337, sequence (whole entry, looked up): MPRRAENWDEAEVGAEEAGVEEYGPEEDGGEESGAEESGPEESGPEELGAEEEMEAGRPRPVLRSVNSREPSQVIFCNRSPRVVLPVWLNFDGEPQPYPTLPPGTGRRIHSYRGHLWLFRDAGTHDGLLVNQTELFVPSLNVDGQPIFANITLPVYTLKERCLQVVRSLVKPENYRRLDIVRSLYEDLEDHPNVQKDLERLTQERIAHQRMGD

Structure (SMILES) | target | test | system | conditions | Ki
CCc1c(C(=O)NCCc2ccc(N3CCCCC3)cc2)[nH]c2ccc(Cl)cc12 | CNR1 | ligand displacement in cells, radioligand | – | – | 0.4 µM
CCCCCCCC[C@@H]1[C@H](O)[C@@H](O)[C@H](O)[C@H]2CS/C(=N/CCCC)N12 | bglA | competitive inhibitor | – | with: p-nitrophenyl glucopyranoside | > 2000 µM
CC[C@H](C)[C@H](NC(=O)[C@H](CCCCN)NC(=O)[C@H](CO)NC(=O)[C@@H](NC(=O)[C@H](CCC(N)=O)NC(=O)[C@H](CCSC)NC(=O)[C@@H](N)CS)[C@@H](C)O)C(=O)O | Na(+)/H(+) exchange regulatory cofactor NHE-RF2 PDZ domain 1 | binding to PDZ1 domain, inhibitor, fluorescence polarization | – | – | 806 ± 84 µM
CC(=O)c1ccc(NC(=O)c2nc(-c3ccccc3)n(-c3ccc(Cl)cc3)n2)cc1 | CNR1 | cell-free assay | – | – | 0.502 µM
COc1ccc(CNCCN2C(=O)c3cccc4cccc(c34)C2=O)cc1 | Chitooligosaccharidolytic beta-N-acetylglucosaminidase (Ostrinia furnacalis, UniProt Q06GJ0) | inhibitor | – | pH 6.0, 25 °C, with: pNP-β-GlcNAc | > 100 µM
O=C(CN(Cc1ccc2c(c1)OCO2)Cc1ccc2c(c1)OCO2)NO | Astl | enzyme activity, inhibitor, fluorogenic | – | pH 7.4, 37 °C, apparent Ki, Morrison equation, with: 25 µM substrate | 2.56 ± 0.13 µM
CNC(=O)C1CCN(c2ccccc2NC(=O)c2ccc(-c3cc(OC)ccc3C)c(C)c2)CC1 | EPHA2 | – | – | – | > 0.25 µM
CC1(C)NC(N)=Nc2nc3c(Cl)cc(Cl)cc3n21 | Dihydrofolate reductase (DHFR, Homo sapiens, UniProt P00374) | inhibitor | – | – | 1.35 µM
CC(C)(O)c1ccc(N2Cc3c(ccnc3-c3ccc(F)cc3OCC(F)(F)F)C2=O)cc1 | Ceramide glucosyltransferase (UGCG, Homo sapiens, UniProt Q16739) | noncompetitive inhibitor | – | with: UDP-glucose | 0.0164 ± 0.0017 µM
CCC(NC(=O)C(CC(C)C)NC(=O)CCc1ccccc1)C(=O)C(=O)NCc1cccc(OC)c1 (stereo not shown) | Calpain-1 catalytic subunit (CAPN1, Homo sapiens, UniProt P07384) | enzyme activity, inhibitor, fluorescence | – | – | 0.152 µM
CN[C@@H](C)C(=O)N[C@H]1CN(C(=O)Cc2ccccc2)CC[C@H]2CC[C@@H](C(=O)NCc3ccccc3)N2C1=O | XIAP BIR3 | ligand displacement, FP | – | – | 0.323 µM
Cc1ccc(O)c(C(=O)Nc2ccc(CN)cc2)c1 | Transmembrane protease serine 11D (TMPRSS11D, Homo sapiens, UniProt O60235) | enzyme activity, inhibitor, fluorescence | – | – | 1.4 µM
CC[C@H](C)[C@H](NC(=O)[C@@H](NC(=O)[C@H](CO)NC(=O)[C@@H](NC(=O)[C@H](CCC(N)=O)NC(=O)[C@H](Cc1c[nH]c2ccccc12)NC(=O)[C@@H](N)CS)[C@@H](C)O)[C@@H](C)CC)C(=O)O | Na(+)/H(+) exchange regulatory cofactor NHE-RF2 PDZ domain 1 | binding to PDZ1 domain, inhibitor, fluorescence polarization | – | – | 496 ± 151 µM
O=C(CN(Cc1cccc(C(=O)O)c1)Cc1ccc2c(c1)OCO2)NO | Astl | enzyme activity, inhibitor, fluorogenic | – | pH 7.4, 37 °C, apparent Ki, Morrison equation, with: 25 µM substrate | 2.39 ± 0.06 µM
CCOCCNC(=O)N1CCC[C@H](c2n[nH]c(-c3ccccc3)n2)C1 | Aromatase (CYP19A1, Homo sapiens, UniProt P11511) | enzyme activity, inhibitor | – | – | 12.8 µM
CC(Oc1nc(-c2ccccc2)nc2ccccc12)C(=O)N(C)c1ccccc1 (stereo not shown) | Translocator protein (Tspo, Rattus norvegicus, UniProt P16257) | binding, radioligand displacement | rat brain homogenate | – | 0.00013 ± 8e-05 µM
CN[C@@H](C)C(=O)N[C@H]1CN(C(=O)Cc2ccccc2)CC[C@H]2CC[C@@H](C(=O)NCc3ccc([N+](=O)[O-])cc3)N2C1=O | XIAP BIR3 | ligand displacement, FP | – | – | 11.6 µM
CNC(=O)C1CCN(c2ccccc2NC(=O)c2ccc(-c3ccncc3)c(C)c2)CC1 | EPHA2 | – | – | – | > 0.25 µM
CCC[C@H]1N[C@H](CO)[C@@H](O)[C@H](O)[C@H]1O | GLAA | enzyme activity, inhibitor | – | – | 67 µM
OC[C@H]1c2[nH]cnc2[C@H](O)[C@@H](O)[C@@H]1O | bglA | enzyme activity, inhibitor | – | pH 6.8 | 58 µM

Structure (SMILES) | target | test | system | conditions | Ki
[N-]=[N+]=N[C@H]1C[C@H](n2cnc3c(=O)[nH]c(N)nc32)O[C@@H]1COP(=O)(O)OP(=O)(O)OP(=O)(O)O | Telomerase reverse transcriptase (TERT, Homo sapiens, UniProt O14746) | enzyme activity, inhibitor | – | – | 1.5 µM
Cc1ncsc1-c1ccc(CNC(=O)[C@@H]2C[C@@H](O)CN2C(=O)[C@@H](NC(=O)OC(C)(C)C)C(C)(C)C)cc1 | von Hippel-Lindau disease tumor suppressor, with elongin B/C (VHL, Homo sapiens, UniProt P40337) | binding, competitor, fluorescence polarization | – | 90 min, with: 10 nM BODIPY FL VH032 with 100 nM GST-VCB | 8 µM
CCCCCCCCN=C1SC[C@@H]2[C@@H](O)[C@H](O)[C@@H](O)[C@@H](CCCCCCCC)N12 | bglA | competitive inhibitor | – | with: p-nitrophenyl glucopyranoside | > 2000 µM
CCC(NC(=O)C(CC(C)C)NC(=O)CCc1ccccc1)C(=O)C(=O)NCc1cc(F)cc(OC)c1 (stereo not shown) | Calpain-2 catalytic subunit | enzyme activity, inhibitor, fluorescence | – | – | 0.103 µM
CC(C)C[C@@H]1NC(=O)[C@H](C)NC(=O)[C@H](CC2CCN(C(=N)N)CC2)NC(=O)[C@H](CO)NC(=O)[C@H](CCCNC(=N)N)NC(=O)[C@H](CCCCN)NC(=O)[C@@H]2CCCN2C(=O)[C@@H](N)CSSC[C@@H](C(=O)O)NC(=O)[C@H](Cc2ccccc2)NC1=O | Plasma kallikrein (KLKB1, Homo sapiens, UniProt P03952) | enzyme activity, inhibitor, absorbance | – | pH 7.4 | 0.022 µM
CCCCCCCCN1[C@H](CCC)[C@H](O)[C@@H](O)[C@H](O)[C@H]1CO | GLAA | enzyme activity, competitive inhibitor | – | optimal pH, with: p-nitrophenyl glycopyranoside | > 2000 µM
CN[C@@H](C)C(=O)N[C@H]1CN(C(=O)Cc2ccccc2)CC[C@H]2CC[C@@H](C(=O)NCc3ccc(C(C)C)cc3)N2C1=O | XIAP BIR3 | ligand displacement, FP | – | – | 38 µM
O=C(CN(Cc1ccccc1)Cc1cccc(C(=O)O)c1)NO | Astl | enzyme activity, inhibitor, fluorogenic | – | pH 7.4, 37 °C, apparent Ki, Morrison equation, with: 25 µM substrate | 11.1 ± 0.89 µM
NCCCCCO[C@H]1O[C@H](COS(=O)(=O)O)[C@@H](O[C@@H]2O[C@@H](C(=O)O)[C@@H](O[C@H]3O[C@H](COS(=O)(=O)O)[C@@H](O[C@@H]4O[C@@H](C(=O)O)[C@@H](O[C@H]5O[C@H](COS(=O)(=O)O)[C@@H](O[C@@H]6O[C@@H](C(=O)O)[C@@H](O)[C@H](O)[C@H]6OS(=O)(=O)O)[C@H](O)[C@H]5NS(=O)(=O)O)[C@H](O)[C@H]4OS(=O)(=O)O)[C@H](O)[C@H]3NS(=O)(=O)O)[C@H](O)[C@H]2OS(=O)(=O)O)[C@H](O)[C@H]1NS(=O)(=O)O | Heparanase (HPSE, Homo sapiens, UniProt Q9Y251) | enzyme activity, inhibitor, absorbance | – | – | 40.9 µM
CCC(NC(=O)C(CC(C)C)NC(=O)CCc1ccc(C#N)cc1)C(=O)C(=O)NCc1cc(OC)cc(OC)c1 (stereo not shown) | Calpain-2 catalytic subunit | enzyme activity, inhibitor, fluorescence | – | – | 0.133 µM
CCCCN1[C@H](CCC)[C@H](O)[C@@H](O)[C@H](O)[C@H]1CO | GLAA | enzyme activity, competitive inhibitor | – | optimal pH, with: p-nitrophenyl glycopyranoside | > 2000 µM
O=C(CNc1ccc2ccccc2c1)N/N=C/c1cc(Br)c(O)c(Br)c1 | Cystic fibrosis transmembrane conductance regulator (CFTR, Homo sapiens, UniProt P13569) | chloride current, inhibitor, short-circuit current | FRT | basolateral membrane permeabilized | 4.7 µM
CC[C@H](C)[C@H](NC(=O)[C@H](CCC(=O)O)NC(=O)[C@@H]1CCCN1C(=O)[C@H](CCCNC(=N)N)NC(C)=O)C(=O)N[C@@H](Cc1c[nH]c2ccccc12)C(=O)N[C@@H](Cc1ccc(O)cc1)C(=O)N[C@@H](C)C(=O)N[C@@H](CCC(N)=O)C(=O)NCC(=O)N[C@@H](CC(C)C)C(=O)N[C@@H](CCCCN)C(=O)N[C@@H](CCCNC(=N)N)C(=O)N[C@@H](Cc1ccccc1)C(=O)NCC(=O)N[C@@H](CC(=O)O)C(=O)N[C@@H](CCC(=O)O)C(=O)N[C@@H](Cc1ccccc1)C(=O)N[C@@H](CC(N)=O)C(=O)N[C@@H](C)C(=O)N[C@@H](Cc1ccc(O)cc1)C(=O)N[C@@H](CCCCN)C(=O)N[C@@H](C)C(=O)N[C@@H](CCCNC(=N)N)C(N)=O | Bcl-2-like protein 1 (BCL2L1, Homo sapiens, UniProt Q07817) | ligand displacement, FP | – | pH 7.8 | ≤ 0.0001 µM
CCC[C@@H]1[C@H](O)[C@@H](O)[C@H](O)[C@@H](CO)N1C(=S)NCCc1ccccc1 | GLAA | enzyme activity, inhibitor | – | – | 455 µM
CC(=O)N[C@@H]1[C@@H](O)[C@H](O)[C@@H](CO)N[C@@H]1CP(=O)(O)OP(=O)(O)OC/C=C(/C)CC/C=C(\C)CC/C=C(\C)CCC=C(C)C | Peptidoglycan glycosyltransferase (Clostridioides difficile, UniProt Q189X7) | – | – | Clostridioides difficile protein | 6.3 ± 1.4 µM
Clc1ccc(-n2cc(CNC[C@@H]3CCCOC3)nn2)c(Cl)c1 | D(2) dopamine receptor (DRD2, Homo sapiens, UniProt P14416) | ligand displacement, radioligand | – | – | > 10 µM
CNC(=O)c1cc(C)ccc1NC(=O)c1ccc(-c2cc(O)ccc2C)c(C)c1 | EPHA2 | enzyme activity, inhibitor | – | – | 0.0225 µM
CCCCCCCC[C@@H]1[C@H](O)[C@@H](O)[C@H](O)[C@@H](CO)N1C(=S)NCCCC | bglA | competitive inhibitor | – | with: p-nitrophenyl glucopyranoside | 293 ± 25 µM
CCC(NC(=O)C(CC(C)C)NC(=O)CCc1ccncc1)C(=O)C(=O)NCc1cc(OC)cc(OC)c1 (stereo not shown) | Calpain-2 catalytic subunit | enzyme activity, inhibitor, fluorescence | – | – | 0.062 µM
CNC(=O)C1CCN(c2cc(C)c(F)cc2NC(=O)c2ccc(-c3cc(O)ccc3C)c(C)c2)CC1 | EPHA2 | enzyme activity, inhibitor | – | – | 0.004 µM and < 0.01 µM
